Measurements from different studies.
Protocols differ between the studies behind these lines. “And” joins repeats or separate records; there may be more than shown.
Target: Maternal embryonic leucine zipper kinase (MELK, Homo sapiens, UniProt Q14680)

COc1c(Cl)cccc1Nc1c(-c2ccncc2C#C[C@@]2(C)CCCN2C(=O)/C=C/CN(C)C)[nH]c2c1C(=O)NCC2
remaining binding (binding, competition with immobilised ligand; 3 µM): 23%

NC(=O)C[C@H]1CCc2sc3ncnc(O[C@H]4CC[C@H](N5CCOCC5)CC4)c3c21
inhibition (enzyme activity, inhibitor; 10 µM): 9%

N[C@H]1CC[C@H](Nc2nccc(-c3cccnc3Oc3ccc(NC(=O)NC4CC4)c4ccccc34)n2)CC1
log2 LFQ intensity (kinobead competition pulldown; HEK293/HCT116 lysate mixture; 10 µM, 1 h, 4 °C; lower = stronger competition): 21.6 and 21.5 and 21.8

Cc1ccc(C)c(-c2ccc3nc(NC(=O)C4CCCCC4)nn3c2)c1
remaining activity (enzyme activity, Dundee kinase panel; 10 µM): 62%

Cc1cccc(O[C@H]2CCC[C@@H](C(C)CNCc3ccncc3)C2)c1 (relative stereo)
inhibition (enzyme activity, inhibitor; 10 µM): -4%

Nc1ncc(-c2cc(-c3cnn(CC(F)(F)F)c3)ncc2F)nc1C(=O)NC1CNCC(F)C1 (stereo not shown)
remaining activity (enzyme activity; 1 µM; relative to: DMSO control): 81%

CNC(=O)C1CCN(c2cc(C)c(F)cc2NC(=O)c2ccc(-c3cc(O)ccc3C)c(C)c2)CC1
remaining binding (binding, competition with immobilised ligand; 1 µM): 60%

CN1CC[C@@H](COc2cnc(C#N)cc2-c2ccn3nc(NC(=O)C4CC4)cc3c2)C1
inhibition (enzyme activity, inhibitor; 1 µM): 3%

CC(C)=CC1OC(C)(C)C2C=C3C(=O)C(Cl)=CC(O)C3C3C(O)C4OC4C(=O)C132 (stereo not shown)
remaining binding (cell-free assay, competition with immobilised ligand; 10 µM): 97%

C=CC(=O)Nc1cccc(-c2cnc3[nH]cc(C(=O)NC(C)(C)C)c3n2)c1
inhibition (kinase activity; 0.1 µM): 11%

COc1cc(Nc2nc(C)cc(-c3cnn4nc(OC)ccc34)n2)cc(C(F)(F)F)c1
remaining activity (inhibitor; 1 µM; relative to: control): 97%

O=C=[N][Ru-4]123([n]4c5ccc(O)cc5c5c6c(c7cc(F)c[n+]1c7c54)C(=O)NC6=O)[S+]1CC[S+]2CC[S+]3CC1 (stereo not shown)
remaining activity (enzyme activity; 100 nM, human enzyme, added: 10 µM ATP; relative to: untreated): 4%

C=CC(=O)N1CCCC(n2c(=O)c3ncccc3n(Cc3ccc(Oc4ccccc4)cc3)c2=O)C1 (stereo not shown)
remaining binding (cell-free assay, competition with immobilised ligand; 1 µM): 97%

Nc1nc(Nc2ccccc2)sc1C(=O)c1ccccc1
remaining activity (enzyme activity, inhibitor; 10 µM): 34%

Cc1cccc(-c2ccc3nc(NC(=O)C4CCCO4)nn3c2)c1 (stereo not shown)
remaining activity (enzyme activity, Dundee kinase panel; 10 µM): 65%

CCn1cc(C(=O)O)c(=O)c2c(N)c(F)c(NC3CCCCC3)cc21
inhibition (kinase activity; 0.1 µM, added: ATP at Km): 19.7%

CNC(=O)C[C@H](Cc1ccc(C#N)cc1)NC(=O)c1cc(-c2ccc(CN[C@H](C)c3ccc(C)cc3)o2)ccc1Cl
activity vs control (enzyme activity, inhibitor; 1 µM): 107%

CN1CCN(Cc2ccc(-c3ccc(CO[C@H]4CCC[C@@H]4NC(=O)c4cc(-c5cnn(C)c5)cnc4N)cc3)cc2)CC1
inhibition (enzyme activity, inhibitor; 0.1 µM): 20%

COc1c(OCCCN2CCOCC2)ccc2c1N=C(NC(=O)c1cnc(N)nc1)N1CCN=C21
remaining activity (kinase activity, inhibitor; 1 µM; relative to: untreated control): 104%

A few entries again:
N[C@H]1CC[C@H](Nc2nccc(-c3cccnc3Oc3ccc(NC(=O)NC4CC4)c4ccccc34)n2)CC1
log2 LFQ intensity (kinobead competition pulldown; HEK293/HCT116 lysate mixture; 10 µM, 1 h, 4 °C; lower = stronger competition): 21.6 and 21.5 and 21.8

Cc1ccc(C)c(-c2ccc3nc(NC(=O)C4CCCCC4)nn3c2)c1
remaining activity (enzyme activity, Dundee kinase panel; 10 µM): 62%
